Results gathered from unrelated publications.
Each line is one published result; not all experiments were run side by side. ± gives the spread as reported.

For `C=C[C@@H]1C[C@]1(NC(=O)[C@@H]1C[C@@H]2CN1C(=O)[C@H](C(C)(C)C)NC(=O)O[C@@H]1C[C@H]1CCCCCc1nc3ccc(OC)cc3nc1O2)C(=O)NS(=O)(=O)C1CC1`, the AUC(0-inf) was 0.573 µM·h (healthy adult humans, plasma; oral, 100 mg, fixed-dose combination with elbasvir 50 mg, fasted).
The AUC(0-inf) of `CCS(=O)(=O)N1CC(CC#N)(n2cc(-c3ncnc4[nH]ccc34)cn2)C1` is reported as 274 ng·h/mL (healthy Chinese human subjects, plasma; oral, 4 mg, single dose, mean).
`CCOCCn1c(C2CCN(CCc3ccc(C(C)(C)C(=O)O)cc3)CC2)nc2ccccc21` gave an AUC(0-inf) of 703 ng·h/mL (healthy human subjects, plasma; oral, 20 mg, geometric LS mean).
The AUC(0-inf) of `CCOc1cc([C@@H](CS(C)(=O)=O)N2C(=O)c3cccc(NC(C)=O)c3C2=O)ccc1O[C@@H]1O[C@H](C(=O)O)[C@@H](O)[C@H](O)[C@H]1O` is reported as 4820 ng·h/mL (healthy human controls, plasma; oral, 30 mg apremilast, matched to severe impairment).
The AUC(0-inf) of `CNC(=O)c1ccc(-c2cnc3ncc(Cc4ccc5ncccc5c4)n3n2)cc1F` is reported as 7720 ng·h/mL (human severe hepatic impairment; oral, 200 mg single dose, adjusted geometric mean).
`COc1cc2ncnc(Nc3ccc(F)c(Cl)c3)c2cc1OCCCN1CCOCC1` has an AUC(0-inf) of 7.33 ± 1.81 ng·h/mL (human, plasma; oral, 250 mg, together with: vorinostat 300 mg).
`CO[C@H]1C[C@@H]2CC[C@@H](C)[C@@](O)(O2)C(=O)C(=O)N2CCCC[C@H]2C(=O)O[C@H]([C@H](C)C[C@@H]2CC[C@@H](O)[C@H](OC)C2)CC(=O)[C@H](C)/C=C(\C)[C@@H](O)[C@@H](OC)C(=O)[C@H](C)C[C@H](C)/C=C/C=C/C=C/1C` has an AUC(0-inf) of 1460 ng·h/mL (human, whole blood; oral, 16 mg, without ketoconazole).
The AUC(0-inf) of `CC(C)[C@@H](CS(=O)(=O)C(C)C)N1C(=O)[C@@](C)(CC(=O)O)C[C@H](c2cccc(Cl)c2)[C@H]1c1ccc(Cl)cc1` is reported as 3430 ng·h/mL (human, plasma; oral, 60 mg, new tablet, fasted, arithmetic mean).
For `C=C(C)[C@@H]1CC[C@]2(NCCN3CCS(=O)(=O)CC3)CC[C@]3(C)[C@H](CC[C@@H]4[C@@]5(C)CC=C(C6=CC[C@@](CF)(C(=O)O)CC6)C(C)(C)[C@@H]5CC[C@]43C)[C@@H]12`, the AUC(0-inf) was 41000 ng·h/mL (healthy human volunteers, plasma; oral, 200 mg, tablet, moderate-fat state, geometric mean).
With `COc1cc(Nc2ncc3c(n2)-c2ccc(Cl)cc2C(c2c(F)cccc2OC)=NC3)ccc1C(=O)O` the AUC(0-inf) was 26.2 µM·h (human, plasma; oral, 50 mg single, fasted).
For `CO[C@H]1C[C@@H]2CC[C@@H](C)[C@@](O)(O2)C(=O)C(=O)N2CCCC[C@H]2C(=O)O[C@H]([C@H](C)C[C@@H]2CC[C@@H](O)[C@H](OC)C2)CC(=O)[C@H](C)/C=C(\C)[C@@H](O)[C@@H](OC)C(=O)[C@H](C)C[C@H](C)/C=C/C=C/C=C/1C`, the AUC(0-inf) was 346 ng·h/mL (healthy human subjects, whole blood; oral, 2 mg single dose, arithmetic mean, together with: isavuconazole 200 mg once daily after loading).
With `CCc1nc(C(N)=O)c(Nc2ccc(N3CCC(N4CCN(C)CC4)CC3)c(OC)c2)nc1NC1CCOCC1` the AUC(0-inf) was 549 ng·h/mL (human, normal hepatic function, plasma; oral, 10 mg, single dose, fasted, geometric LS mean).
`CCC(CC)O[C@@H]1C=C(C(=O)O)C[C@H](N)[C@H]1NC(C)=O` has an AUC(0-inf) of 3860 ± 673 ng·h/mL (healthy Indian human, plasma; oral, 75 mg oseltamivir phosphate single, test capsule fed).
The AUC(0-inf) of `CCOc1c([C@H](C)n2nc(C)c3c(N)ncnc32)cc(Cl)c(F)c1[C@@H]1CNC(=O)C1` is reported as 7.5 ± 0.787 µM·h (healthy human, fasted; oral, 10 mg single dose).
The AUC(0-inf) of `CC(C)[C@](O)(c1ccc2cc(OC(F)F)c(OC(F)F)cc2c1)c1c[nH]nn1` is reported as 33000 ± 4330 ng·h/mL (human patients, male, plasma; oral, 600 mg, cycle 1 day 1, first dose).
The AUC(0-inf) of `CN(Cc1cnc2nc(N)nc(N)c2n1)c1ccc(C(=O)N[C@@H](CCC(=O)O)C(=O)O)cc1` is reported as 2960 ng·h/mL (human, plasma; oral, 20 mg, alone, mean).
`NS(=O)(=O)OC[C@@H]1C[C@@H](n2ccc3c(N[C@H]4CCc5ccccc54)ncnc32)C[C@@H]1O` gave an AUC(0-inf) of 498 ng·h/mL (human; iv, 8 mg/m^2, day 8, geometric LS mean, together with: fluconazole).
The AUC(0-inf) of `Cc1ccc(NC(=O)c2ccc(CN3CCN(C)CC3)cc2)cc1Nc1nccc(-c2cncc(-c3oncc3C)c2)n1` is reported as 115000 ng·h/mL (older healthy human adults, plasma; oral, 100 mg single dose, fed, mean).
With `CNC(=O)c1c(C)oc2cc(Oc3ncnc4cc(OC)c(OC)cc34)ccc12` the AUC(0-inf) was 5060 ng·h/mL (human, plasma; oral, 5 mg, fasted).
`Cc1ccc(C(=O)NC2CC2)cc1-n1ncc(C(=O)c2cccc(C#N)c2)c1N` has an AUC(0-inf) of 6250 ng·h/mL (healthy human; oral, 14 mg single, geometric mean).
The AUC(0-inf) of `CC(=O)O[C@H]1C(=O)[C@@]2(C)[C@H]([C@H](OC(=O)c3ccccc3)[C@]3(O)C[C@H](OC(=O)[C@H](O)[C@@H](NC(=O)c4ccccc4)c4ccccc4)C(C)=C1C3(C)C)[C@]1(OC(C)=O)CO[C@@H]1C[C@@H]2O` is reported as 22100 ± 5260 ng·h/mL (non-compartmental; human patients, plasma; intravenous, 200 mg/m^2, together with: lenvatinib 6 mg twice daily).
For `CNC(=O)c1ccccc1Sc1ccc2c(/C=C/c3ccccn3)n[nH]c2c1`, the AUC(0-inf) was 156 ng·h/mL (human, normal hepatic function (Child-Pugh), plasma; single dose, geometric mean, total drug).
With `CCN1CCN(Cc2ccc(Nc3ncc(F)c(-c4cc(F)c5nc(C)n(C(C)C)c5c4)n3)nc2)CC1` the AUC(0-inf) was 3580 ng·h/mL (human patients, plasma; oral, 200 mg single, geometric mean).
`CC[C@H](C)[C@@H]1NC(=O)[C@H](CCCNC(=N)N)NC(=O)[C@H](CC(=O)O)NC(=O)[C@H](CC(C)C)NC(=O)[C@H](CCCCN)NC(=O)[C@H](CC(C)C)NC(=O)CNC(=O)[C@H](Cc2ccccc2)NC(=O)[C@@H](NC(=O)CNC(=O)[C@H](CCCCN)NC(=O)[C@H](CO)NC(=O)[C@H](CC(C)C)NC(=O)CNC(=O)[C@H](CCCCN)NC(=O)[C@H](CCCCN)NC(=O)[C@H](CC(N)=O)NC(=O)[C@H](C)NC(=O)CNC(=O)[C@H](CCCCN)NC(=O)[C@H](Cc2ccc(O)cc2)NC(=O)[C@H](CCCCN)NC(=O)[C@H](CCCNC(=N)N)NC(=O)[C@H](C)NC(=O)[C@H](CC(N)=O)NC(=O)[C@@H]2CCCN2C(=O)[C@H](Cc2c[nH]cn2)NC(=O)[C@H](CCC(=O)O)NC(=O)[C@H](CCC(N)=O)NC(=O)CNC(=O)[C@@H]2CCCN2)CSSC[C@@H](C(=O)O)NC(=O)CNC(=O)[C@H](CC(C)C)NC(=O)CNC(=O)[C@H](CO)NC(=O)[C@H](CCSC)NC(=O)[C@H](CO)NC(=O)CNC1=O` gave an AUC(0-inf) of 4.6 ng·h/mL (ECLA; human, plasma; subcutaneous, 15 µg/kg once daily, week 52).
`CC(=O)O[C@H]1C(=O)[C@@]2(C)[C@H]([C@H](OC(=O)c3ccccc3)[C@]3(O)C[C@H](OC(=O)[C@H](O)[C@@H](NC(=O)c4ccccc4)c4ccccc4)C(C)=C1C3(C)C)[C@]1(OC(C)=O)CO[C@@H]1C[C@@H]2O` gave an AUC(0-inf) of 6.5 ± 0.575 µM·h (human patients, plasma; intravenous, 80 mg/m^2, day 8, geometric mean, together with: onalespib 150 mg/m^2).
For `CCOc1cc([C@@H](CS(C)(=O)=O)N2C(=O)c3cccc(NC(C)=O)c3C2=O)ccc1OC`, the AUC(0-inf) was 2830 ng·h/mL (healthy human, male, plasma; oral, 20 mg single dose, together with: ketoconazole multiple doses).
For `O=C(/C=C/c1cccc(S(=O)(=O)Nc2ccccc2)c1)NO[C@@H]1O[C@H](C(=O)O)[C@@H](O)[C@H](O)[C@H]1O`, the AUC(0-inf) was 307000 ng·h/mL (human moderate liver dysfunction, plasma; intravenous, 400 mg/m^2, 30 min infusion, cycle 1 day -7, together with: belinostat 400 mg/m^2 iv).
For `CC(C)NC[C@@H](C(=O)N1CCN(c2ncnc3c2[C@H](C)C[C@H]3O)CC1)c1ccc(Cl)cc1`, the AUC(0-inf) was 323 ng·h/mL (human, hepatic impairment Mild (Child-Pugh), plasma; oral, 100 mg single, geometric mean).
For `C=CC(=O)Nc1cc(Nc2ncc(C(=O)OC(C)C)c(-c3cn(C)c4ccccc34)n2)c(OC)cc1N(C)CCN(C)C`, the AUC(0-inf) was 1020 ng·h/mL (human, fasted; oral, 160 mg single dose, geometric mean).
`CNC(=O)c1ccc(-c2cnc3ncc(Cc4ccc5ncccc5c4)n3n2)cc1F` gave an AUC(0-inf) of 5500 ng·h/mL (healthy human subjects, plasma; oral, 200 mg, arithmetic mean, alone).
For `C=CC(=O)Nc1cc(Nc2ncc(C(=O)OC(C)C)c(-c3cn(C)c4ccccc34)n2)c(OC)cc1N(C)CCN(C)C`, the AUC(0-inf) was 1510 ng·h/mL (human, plasma; oral, 160 mg, geometric mean, alone).
For `Cc1ccc(NC(=O)c2ccc(CN3CCN(C)CC3)cc2)cc1Nc1nccc(-c2cccnc2)n1`, the AUC(0-inf) was 94600 ng·h/mL (human patients, plasma; oral, 400 mg/day, day 14 of cycle 1, together with: IL-2 6 MIU/day days 10-14).
The AUC(0-inf) of `CCCC[C@H](NC(C)=O)C(=O)N[C@H]1CCC(=O)NC[C@@H](C(=O)N[C@@H](Cc2c[nH]c3ccccc23)C(N)=O)NC(=O)[C@H](CCCNC(=N)N)NC(=O)[C@@H](Cc2ccccc2)NC(=O)[C@H](Cc2c[nH]cn2)NC1=O` is reported as 52.3 ng·h/mL (healthy human volunteers, plasma; subcutaneous, 1.0 mg once daily, day 1).
`CC(C)(/C=C(\C#N)C(=O)N1CCC[C@@H](n2nc(-c3ccc(Oc4ccccc4)cc3F)c3c(N)ncnc32)C1)N1CCN(C2COC2)CC1` has an AUC(0-inf) of 66 ng·h/mL (human, plasma; oral, 100 mg single dose, mean).
`CCc1cc(/C(C)=N/OCc2ccc(C3CCCCC3)c(C(F)(F)F)c2)ccc1CN1CC(C(=O)O)C1` has an AUC(0-inf) of 2190 ng·h/mL (healthy human, plasma; oral, 4 mg, geometric mean, together with: fluconazole steady state).

Excerpt of the above:
`NS(=O)(=O)OC[C@@H]1C[C@@H](n2ccc3c(N[C@H]4CCc5ccccc54)ncnc32)C[C@@H]1O` gave an AUC(0-inf) of 498 ng·h/mL (human; iv, 8 mg/m^2, day 8, geometric LS mean, together with: fluconazole).
The AUC(0-inf) of `Cc1ccc(NC(=O)c2ccc(CN3CCN(C)CC3)cc2)cc1Nc1nccc(-c2cncc(-c3oncc3C)c2)n1` is reported as 115000 ng·h/mL (older healthy human adults, plasma; oral, 100 mg single dose, fed, mean).
With `CNC(=O)c1c(C)oc2cc(Oc3ncnc4cc(OC)c(OC)cc34)ccc12` the AUC(0-inf) was 5060 ng·h/mL (human, plasma; oral, 5 mg, fasted).
`Cc1ccc(C(=O)NC2CC2)cc1-n1ncc(C(=O)c2cccc(C#N)c2)c1N` has an AUC(0-inf) of 6250 ng·h/mL (healthy human; oral, 14 mg single, geometric mean).
The AUC(0-inf) of `CC(=O)O[C@H]1C(=O)[C@@]2(C)[C@H]([C@H](OC(=O)c3ccccc3)[C@]3(O)C[C@H](OC(=O)[C@H](O)[C@@H](NC(=O)c4ccccc4)c4ccccc4)C(C)=C1C3(C)C)[C@]1(OC(C)=O)CO[C@@H]1C[C@@H]2O` is reported as 22100 ± 5260 ng·h/mL (non-compartmental; human patients, plasma; intravenous, 200 mg/m^2, together with: lenvatinib 6 mg twice daily).
